# Results from different studies.
# Values joined by “and” are separate records of one study, mostly repeats; a detail may differ. Numbers after ± are the reported error.
# folA: Dihydrofolate reductase (folA, Mycobacterium tuberculosis, UniProt P9WNX1)
# UniProt P9WNX1, sequence (whole entry, looked up): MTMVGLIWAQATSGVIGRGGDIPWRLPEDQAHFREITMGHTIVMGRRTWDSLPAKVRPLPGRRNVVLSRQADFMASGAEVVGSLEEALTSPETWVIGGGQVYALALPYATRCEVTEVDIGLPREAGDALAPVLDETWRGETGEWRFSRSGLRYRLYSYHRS
# NA: Neuraminidase (NA, Influenza A virus, UniProt P03482)
# UniProt P03482, sequence (whole entry, looked up): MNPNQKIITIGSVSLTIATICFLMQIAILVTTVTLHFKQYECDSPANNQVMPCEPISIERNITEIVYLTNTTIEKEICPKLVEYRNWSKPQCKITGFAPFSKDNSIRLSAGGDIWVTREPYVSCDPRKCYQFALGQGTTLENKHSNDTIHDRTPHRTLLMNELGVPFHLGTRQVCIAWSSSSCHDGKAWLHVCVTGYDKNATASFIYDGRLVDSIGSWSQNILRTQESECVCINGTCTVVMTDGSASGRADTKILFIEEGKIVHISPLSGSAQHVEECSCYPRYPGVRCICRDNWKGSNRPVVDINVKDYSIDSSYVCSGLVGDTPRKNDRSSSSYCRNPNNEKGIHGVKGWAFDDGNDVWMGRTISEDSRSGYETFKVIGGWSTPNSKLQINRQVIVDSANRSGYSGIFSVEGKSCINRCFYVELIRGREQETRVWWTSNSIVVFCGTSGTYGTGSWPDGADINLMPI
# EH domain-containing protein 1: EH domain-containing protein 1 (Homo sapiens, UniProt Q9H4M9)
# UniProt Q9H4M9, sequence (whole entry, looked up): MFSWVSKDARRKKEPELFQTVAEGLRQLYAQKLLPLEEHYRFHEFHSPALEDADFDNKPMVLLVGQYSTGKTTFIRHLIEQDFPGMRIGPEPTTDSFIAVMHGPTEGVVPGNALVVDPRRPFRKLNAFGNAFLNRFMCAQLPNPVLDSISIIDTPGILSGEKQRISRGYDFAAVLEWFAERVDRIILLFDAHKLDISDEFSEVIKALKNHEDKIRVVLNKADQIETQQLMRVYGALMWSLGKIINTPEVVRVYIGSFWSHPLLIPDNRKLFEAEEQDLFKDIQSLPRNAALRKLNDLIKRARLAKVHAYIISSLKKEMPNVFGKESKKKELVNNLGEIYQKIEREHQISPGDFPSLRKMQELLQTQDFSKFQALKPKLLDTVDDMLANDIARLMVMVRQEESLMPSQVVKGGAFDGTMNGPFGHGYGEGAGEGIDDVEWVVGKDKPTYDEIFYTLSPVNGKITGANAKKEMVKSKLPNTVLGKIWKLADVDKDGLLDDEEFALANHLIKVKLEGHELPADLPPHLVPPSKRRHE
# 4'-phosphopantetheinyl transferase PptT: 4'-phosphopantetheinyl transferase PptT (Mycobacterium tuberculosis, UniProt O33336)
# UniProt O33336, sequence (whole entry, looked up): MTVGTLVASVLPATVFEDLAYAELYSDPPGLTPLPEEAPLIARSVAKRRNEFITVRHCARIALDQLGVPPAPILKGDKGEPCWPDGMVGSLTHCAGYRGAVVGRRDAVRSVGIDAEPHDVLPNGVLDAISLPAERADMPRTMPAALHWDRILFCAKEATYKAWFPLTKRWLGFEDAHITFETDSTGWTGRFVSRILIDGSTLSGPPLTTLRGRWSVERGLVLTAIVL
# eis: N-acetyltransferase Eis (eis, Mycobacterium tuberculosis, UniProt P9WFK7)
# UniProt P9WFK7, sequence (whole entry, looked up): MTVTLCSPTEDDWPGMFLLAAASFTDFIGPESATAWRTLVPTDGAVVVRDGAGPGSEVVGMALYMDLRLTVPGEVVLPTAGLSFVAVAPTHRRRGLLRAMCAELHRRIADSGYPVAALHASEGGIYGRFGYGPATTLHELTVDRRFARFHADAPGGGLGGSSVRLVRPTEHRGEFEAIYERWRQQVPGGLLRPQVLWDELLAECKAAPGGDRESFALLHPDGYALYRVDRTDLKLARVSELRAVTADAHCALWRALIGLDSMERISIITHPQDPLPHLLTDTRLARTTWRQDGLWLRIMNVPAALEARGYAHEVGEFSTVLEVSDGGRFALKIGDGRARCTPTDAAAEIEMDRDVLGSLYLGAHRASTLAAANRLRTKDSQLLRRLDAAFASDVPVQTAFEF
# Polymerase acidic protein PA with PB1 subunit: Polymerase acidic protein, PA with PB1 subunit (Influenza A virus, UniProt P03433)
# rep main protease: Replicase polyprotein 1ab, main protease (rep, Severe acute respiratory syndrome coronavirus 2, UniProt P0DTD1)
# prcB open-gate 20S proteasome: Proteasome subunit beta, open-gate 20S proteasome (prcB, Mycobacterium tuberculosis, UniProt P9WHT9)
# UniProt P9WHT9, sequence (whole entry, looked up): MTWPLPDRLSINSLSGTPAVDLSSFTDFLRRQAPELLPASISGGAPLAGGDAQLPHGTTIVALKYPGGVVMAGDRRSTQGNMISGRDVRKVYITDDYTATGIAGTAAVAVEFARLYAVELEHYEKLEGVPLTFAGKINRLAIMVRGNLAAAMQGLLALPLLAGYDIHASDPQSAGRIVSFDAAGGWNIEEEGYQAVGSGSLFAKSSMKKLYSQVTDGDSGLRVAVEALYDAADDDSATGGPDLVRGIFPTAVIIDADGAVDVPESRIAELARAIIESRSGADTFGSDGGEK
# UniProt P27487, sequence (whole entry, looked up): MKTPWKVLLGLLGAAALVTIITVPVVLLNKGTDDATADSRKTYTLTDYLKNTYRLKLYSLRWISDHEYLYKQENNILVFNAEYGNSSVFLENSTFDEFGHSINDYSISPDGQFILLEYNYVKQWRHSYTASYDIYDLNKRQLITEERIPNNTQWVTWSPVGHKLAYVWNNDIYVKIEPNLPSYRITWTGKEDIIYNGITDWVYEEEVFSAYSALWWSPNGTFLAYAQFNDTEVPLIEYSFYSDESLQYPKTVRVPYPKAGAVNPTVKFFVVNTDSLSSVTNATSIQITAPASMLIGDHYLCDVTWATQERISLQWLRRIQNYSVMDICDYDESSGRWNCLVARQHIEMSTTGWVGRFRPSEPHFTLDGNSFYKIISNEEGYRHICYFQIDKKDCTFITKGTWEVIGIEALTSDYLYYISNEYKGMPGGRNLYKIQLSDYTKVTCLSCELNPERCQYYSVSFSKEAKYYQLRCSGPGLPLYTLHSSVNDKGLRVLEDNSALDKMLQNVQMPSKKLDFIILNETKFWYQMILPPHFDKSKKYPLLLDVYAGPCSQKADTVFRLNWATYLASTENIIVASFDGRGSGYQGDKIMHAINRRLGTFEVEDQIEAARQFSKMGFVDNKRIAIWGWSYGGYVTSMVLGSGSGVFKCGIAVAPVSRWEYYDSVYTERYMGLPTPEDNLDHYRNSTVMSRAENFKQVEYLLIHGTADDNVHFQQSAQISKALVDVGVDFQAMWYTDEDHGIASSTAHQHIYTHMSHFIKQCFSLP
# UniProt P28063, sequence (whole entry, looked up): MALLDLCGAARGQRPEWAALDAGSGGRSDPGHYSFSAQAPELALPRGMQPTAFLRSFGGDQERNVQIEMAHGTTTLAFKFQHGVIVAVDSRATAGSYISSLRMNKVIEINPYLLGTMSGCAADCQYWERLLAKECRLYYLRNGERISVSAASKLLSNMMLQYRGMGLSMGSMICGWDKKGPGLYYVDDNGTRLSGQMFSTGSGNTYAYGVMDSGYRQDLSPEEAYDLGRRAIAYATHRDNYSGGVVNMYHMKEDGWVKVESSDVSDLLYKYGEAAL
# UniProt P16662, sequence (whole entry, looked up): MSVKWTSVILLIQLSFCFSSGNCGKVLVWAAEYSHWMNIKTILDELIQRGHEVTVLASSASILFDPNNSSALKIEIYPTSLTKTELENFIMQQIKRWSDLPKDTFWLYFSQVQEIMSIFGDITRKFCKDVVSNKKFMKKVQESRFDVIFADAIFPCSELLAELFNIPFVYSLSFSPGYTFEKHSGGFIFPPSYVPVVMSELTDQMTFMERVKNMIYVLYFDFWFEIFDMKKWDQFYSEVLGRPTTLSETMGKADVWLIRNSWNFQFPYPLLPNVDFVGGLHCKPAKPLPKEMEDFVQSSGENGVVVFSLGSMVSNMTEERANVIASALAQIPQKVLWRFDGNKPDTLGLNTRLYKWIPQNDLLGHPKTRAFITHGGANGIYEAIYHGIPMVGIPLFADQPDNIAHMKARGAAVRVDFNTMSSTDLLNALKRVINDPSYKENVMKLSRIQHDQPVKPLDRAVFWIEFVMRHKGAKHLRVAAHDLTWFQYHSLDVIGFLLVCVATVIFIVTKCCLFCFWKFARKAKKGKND
# UniProt P9WIA1, sequence (whole entry, looked up): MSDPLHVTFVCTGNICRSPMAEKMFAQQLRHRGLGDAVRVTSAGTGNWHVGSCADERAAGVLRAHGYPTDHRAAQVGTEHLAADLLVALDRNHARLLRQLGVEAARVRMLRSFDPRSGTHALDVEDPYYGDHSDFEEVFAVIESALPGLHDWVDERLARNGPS
# UniProt P33261, sequence (whole entry, looked up): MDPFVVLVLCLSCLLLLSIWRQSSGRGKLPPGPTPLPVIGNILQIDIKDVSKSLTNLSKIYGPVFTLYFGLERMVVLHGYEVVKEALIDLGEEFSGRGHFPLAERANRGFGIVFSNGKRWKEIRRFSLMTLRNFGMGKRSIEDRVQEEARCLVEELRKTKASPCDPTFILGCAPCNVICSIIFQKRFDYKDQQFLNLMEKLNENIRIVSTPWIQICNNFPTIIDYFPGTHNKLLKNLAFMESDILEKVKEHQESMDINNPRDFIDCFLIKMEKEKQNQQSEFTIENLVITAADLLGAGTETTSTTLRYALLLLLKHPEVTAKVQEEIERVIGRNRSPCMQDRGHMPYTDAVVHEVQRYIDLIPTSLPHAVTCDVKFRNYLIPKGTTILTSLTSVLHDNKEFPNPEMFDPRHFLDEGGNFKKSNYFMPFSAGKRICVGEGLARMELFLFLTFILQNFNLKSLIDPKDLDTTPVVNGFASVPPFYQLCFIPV
# UniProt O60656, sequence (whole entry, looked up): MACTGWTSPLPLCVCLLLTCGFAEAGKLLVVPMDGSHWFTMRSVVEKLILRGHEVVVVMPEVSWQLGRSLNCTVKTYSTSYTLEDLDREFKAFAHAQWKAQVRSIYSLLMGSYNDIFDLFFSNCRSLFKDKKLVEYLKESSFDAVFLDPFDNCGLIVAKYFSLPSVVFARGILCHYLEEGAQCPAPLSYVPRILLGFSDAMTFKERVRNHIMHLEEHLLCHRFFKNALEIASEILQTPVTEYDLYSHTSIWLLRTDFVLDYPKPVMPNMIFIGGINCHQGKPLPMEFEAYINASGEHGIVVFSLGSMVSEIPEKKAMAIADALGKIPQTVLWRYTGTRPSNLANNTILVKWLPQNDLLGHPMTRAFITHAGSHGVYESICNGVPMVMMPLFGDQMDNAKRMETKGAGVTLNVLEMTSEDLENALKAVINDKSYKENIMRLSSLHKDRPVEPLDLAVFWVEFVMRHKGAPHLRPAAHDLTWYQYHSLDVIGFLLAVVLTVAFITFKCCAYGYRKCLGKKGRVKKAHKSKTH
SMILES,target,test,system,setting,IC50
COC(=O)[C@H](CCCNC(=O)OC(C)(C)C)NC(=O)c1ccc(NCc2ccc3nc(N)nc(N)c3c2Cl)cc1,folA,"enzyme activity, inhibitor",,,0.0384 µM
CC(=O)OC/C=C/C1=CC2=C(CO1)C(=O)[C@](C)(O)[C@H](OC(=O)c1c(C)cc(O)cc1O)C2,NA,,influenza A virus H3N2,,46.5 ± 2.5 µM
NC(=O)C[C@@H]1NC(=O)[C@H](Cc2ccc(O)cc2)NC(=O)CNC(=O)CNC(=O)[C@H](CCC(=O)O)NC(=O)[C@H](CCC(=O)O)NC(=O)[C@H](Cc2ccccc2)NC(=O)[C@@H]2CCCN2C1=O,EH domain-containing protein 1,"ligand displacement, FP",,,49.2 µM
Cc1nc(=O)c2cc(CN(C)c3cccc(C(=O)Nc4n[nH]c5ccccc45)c3)ccc2[nH]1,4'-phosphopantetheinyl transferase PptT,"enzyme activity, inhibitor, fluorescence polarization",,enzyme 100 nM,1.36 µM
CCN(CC)CCNC(=O)CSc1nc(N)c2c3c(sc2n1)CCC3,eis,inhibitor,,,1.9 ± 0.6 µM
COC(=O)CC[C@H](NC(=O)c1ccc(N(C)Cc2ccc3[nH]c(C)nc(=O)c3c2)s1)C(=O)OC,4'-phosphopantetheinyl transferase PptT,"enzyme activity, inhibitor, fluorescence polarization",,enzyme 100 nM,12.5 µM
Cc1cc(-c2ccccc2)nc2nc(-c3nc4sc5c(c4c(=O)o3)CCCCC5)nn12,Polymerase acidic protein PA with PB1 subunit,"PA-PB1 interaction, inhibitor, ELISA",,,15 ± 5 µM
CC(C)C[C@H](NC(=O)[C@@H]1CCCN1C(=O)[C@@H](NC(=O)[C@@H](NC(=O)c1cnccn1)C(C)C)C(C)C)C(=O)O,"Chaperone protein DnaK, with DnaJ2, GrpE (dnaK, Mycobacterium tuberculosis, UniProt P9WMJ9)",,,,~192 µM
CCC1CCc2c(sc3nc(SCC(=O)NCCN4CCOCC4)nc(N)c23)C1 (centres unmarked),eis,inhibitor,,,19 ± 3 µM
O=C(Nc1nc2cc3c(cc2s1)OCCO3)C1CCN(S(=O)(=O)c2ccc3c(c2)CCC3)CC1,rep main protease,cell-based,,,145 ± 25 µM
CC(C)[N+](C)(C)CCc1c[nH]c2cccc(O)c12,"Slc6a4 (Rattus norvegicus, UniProt P31652)","transporter uptake, inhibitor, radiometric",,,0.31 µM
Nc1nc(SCCCN2CCCCC2)nc2sc3c(c12)CCC(c1ccccc1)C3 (centres unmarked),eis,inhibitor,,,0.23 ± 0.08 µM
COC[C@H](NC(=O)[C@H](CC(=O)N1CCCC1)NC(=O)CCc1ccccc1)C(=O)NCc1cccc2ccccc12,prcB open-gate 20S proteasome,"enzyme activity, inhibitor",,added: LLVY substrate,0.016 ± 0.002 µM
O=S(=O)(O)c1ccc(-c2cnc(-c3ccc(-c4ncc(-c5ccc(S(=O)(=O)O)cc5)o4)cc3)o2)cc1,"Response regulator PhoP (Mycobacterium tuberculosis, UniProt P71814)","DNA binding, fluorescence polarization",,added: 6-FAM DNA 10 nM,88 ± 1.2 µM
Nc1nc(SCCN2CCCC2)nc2sc3c(c12)CCCCC3,eis,inhibitor,,,6.6 ± 0.6 µM
C[C@@H]1NC(=O)[C@@H]2CCCN2C(=O)[C@H](C)NC(=O)[C@H](Cc2ccc(O)cc2)NC(=O)CNC(=O)CNC(=O)[C@H](CCC(=O)O)NC(=O)[C@H](CCC(=O)O)NC1=O,EH domain-containing protein 1,"ligand displacement, FP",,,> 450 µM
Cc1nc(=O)c2cc(CN(C)c3ccc(C(=O)Nc4n[nH]c5ccccc45)s3)ccc2[nH]1,4'-phosphopantetheinyl transferase PptT,"enzyme activity, inhibitor, fluorescence polarization",,enzyme 100 nM,1.04 µM and 1 µM
C#CCCNC(=O)[C@@H](NC(=O)N[C@H](C(=O)N[C@H]1/C=C/CCNC(=O)/C=C/[C@H](C(C)C)NC1=O)C(C)C)C(C)C,"Psmb8 (Mus musculus, UniProt P28063)",inhibitor,,,0.0032 µM
CCOC(=O)CC[C@H](NC(=O)c1cccc(N(C)Cc2ccc3[nH]c(C)nc(=O)c3c2)c1)C(=O)OCC,4'-phosphopantetheinyl transferase PptT,"enzyme activity, inhibitor, fluorescence polarization",,enzyme 100 nM,> 50 µM
CC1CCc2c(sc3nc(SCC(=O)NCCN4CCCCC4)nc(N)c23)C1 (centres unmarked),eis,inhibitor,,,3.7 ± 0.6 µM
Cc1cc(-c2ccccc2)n2nc(-c3nc4sc5c(c4c(=O)o3)CCCCC5)nc2n1,Polymerase acidic protein PA with PB1 subunit,"PA-PB1 interaction, inhibitor, ELISA",,,19 ± 1 µM
"CCCCCc1cc(O)c2c(c1)OC(C)(C)C1CCC(C)=CC21 (single isomer, unassigned; (-))","UGT1A9 (Homo sapiens, UniProt O60656)","enzyme activity, inhibitor",recombinant UGT1A9 microsomes from HEK293,"pH 7.4, glucuronidation, added: acetaminophen",12 ± 3.7 µM
CC(c1cccc(Cl)c1)N(C)C(=O)Cn1nnc2ccccc21 (centres unmarked),rep main protease,cell-based,,,642 ± 204 µM
Nc1nc(SCCN2CCCC2)nc2sc3c(c12)CCC(c1ccccc1)C3 (centres unmarked),eis,inhibitor,,,4 ± 1.1 µM
CC(C)C[C@H](N)C(=O)N1CCC[C@H]1C(=O)N[C@@H](Cc1ccccc1)C(=O)N[C@@H](C)C(=O)O,"DPP4 (Homo sapiens, UniProt P27487)",,,,268 ± 7.2 µM
CCC1CN2CCC3(O)C(=Nc4cccc(OC)c43)C2CC1C(=COC)C(=O)OC (centres unmarked),"UGT2B7 (Homo sapiens, UniProt P16662)","enzyme activity, inhibitor",,"2 h, pH 7.4",26.4 µM
NC1=NN=Cc2ccccc2[O][V](=[O])[O]1.c1cnc2c(c1)ccc1cccnc12,"Low molecular weight protein-tyrosine phosphatase A (Mycobacterium tuberculosis, UniProt P9WIA1)","enzyme activity, inhibitor",,,2.69 ± 0.27 µM
CCN(CC)C(=O)C[C@H](NC(=O)CCc1ccccc1)C(=O)N[C@@H](COC)C(=O)NCc1cccc2ccccc12,prcB open-gate 20S proteasome,"enzyme activity, inhibitor",,added: LLVY substrate,0.023 ± 0.002 µM
Cc1nc(=O)c2cc(CN(C)c3ccc(C(=O)NCc4cccc(C(=O)O)c4)s3)ccc2[nH]1,4'-phosphopantetheinyl transferase PptT,"enzyme activity, inhibitor, fluorescence polarization",,enzyme 100 nM,0.33 µM
CCCCc1nc(Cl)c(C(=O)O)n1Cc1ccc(-c2ccccc2-c2nn[nH]n2)cc1,"Succinyl-CoA:glutarate CoA-transferase (SUGCT, Homo sapiens, UniProt Q9HAC7)","enzyme activity, inhibitor, coupled fluorometric",,pH 7.4,1.7 µM
Cc1cc(O)cc(O)c1C(=O)O[C@@H]1CC2=C(COC([C@@H]3O[C@@H]3C)=C2)C(=O)[C@]1(C)O,NA,,influenza A virus H3N2,,186 µM and 177 µM
Nc1nc(SCCCN2CCCCC2)nc2sc3c(c12)CCCCC3,eis,inhibitor,,,1.2 ± 0.1 µM
"CCCCCc1cc(O)c2c(c1)OC(C)(C)C1CCC(C)=CC21 (single isomer, unassigned; (-))","CYP2C19 (Homo sapiens, UniProt P33261)",inhibitor,HEK cell microsomes,30 min preincubation without NADPH,3.2 ± 2.5 µM
O=c1c2ccccc2[nH]c(=S)n1Cc1cccnc1,4'-phosphopantetheinyl transferase PptT,"enzyme activity, inhibitor, fluorescence polarization",,enzyme 100 nM,0.85 µM
Nc1nc(SCC(=O)NCCN2CCCCC2)nc2sc3c(c12)CCCCC3,eis,inhibitor,,,0.3 ± 0.06 µM
Cc1ccc(Nc2cccc(C(=O)Nc3cc(C(=O)OCc4ccccc4)[nH]n3)c2)nn1,rep main protease,cell-based,,,68 ± 11 µM
Cc1nc(=O)c2cc(CN(C)c3ccc(C(=O)NCc4cc(=O)[nH]c(=O)[nH]4)s3)ccc2[nH]1,4'-phosphopantetheinyl transferase PptT,"enzyme activity, inhibitor, fluorescence polarization",,enzyme 100 nM,0.53 µM
NC1=NC2(CCCCC2)N(c2ccc(OCc3cn(CCCCOc4ccc5ccc(=O)oc5c4)nn3)cc2)C(N)=N1,folA,,,,0.93 µM and ~1 µM

# Some of these lines once more:
SMILES,target,test,system,setting,IC50
"CCCCCc1cc(O)c2c(c1)OC(C)(C)C1CCC(C)=CC21 (single isomer, unassigned; (-))","CYP2C19 (Homo sapiens, UniProt P33261)",inhibitor,HEK cell microsomes,30 min preincubation without NADPH,3.2 ± 2.5 µM
O=C(Nc1nc2cc3c(cc2s1)OCCO3)C1CCN(S(=O)(=O)c2ccc3c(c2)CCC3)CC1,rep main protease,cell-based,,,145 ± 25 µM
Cc1cc(-c2ccccc2)nc2nc(-c3nc4sc5c(c4c(=O)o3)CCCCC5)nn12,Polymerase acidic protein PA with PB1 subunit,"PA-PB1 interaction, inhibitor, ELISA",,,15 ± 5 µM
Cc1nc(=O)c2cc(CN(C)c3cccc(C(=O)Nc4n[nH]c5ccccc45)c3)ccc2[nH]1,4'-phosphopantetheinyl transferase PptT,"enzyme activity, inhibitor, fluorescence polarization",,enzyme 100 nM,1.36 µM
NC1=NC2(CCCCC2)N(c2ccc(OCc3cn(CCCCOc4ccc5ccc(=O)oc5c4)nn3)cc2)C(N)=N1,folA,,,,0.93 µM and ~1 µM
